Measured values pooled from the literature.
Each numbered part is a random draw from the data of one study; scales do not carry over between parts.

Sample 1
Target: Interferon regulatory factor 5, full length, phosphomimetic (IRF5, Homo sapiens, UniProt Q13568-2, residues 1-514, K96S/S451D/S453D/S456D/S462D)
Method: protein-binding microarray
Form: double-stranded DNA, one strand shown
Matrix: in vitro
Tested at: 250 nM
Notes: 60-bp whole probe
Together with: salmon DNA 0.4 mg/ml
Reference: random background probes
Reading: higher = stronger binding
Quantity: log fluorescence
GCCTAGCACGGCGGACTGGGGACTGGGGACGTGCTAGTCTTGATTCGCTTGACGCTGCTG: -0.636 z-score
GCCTAGCACGGATGTTGCAAATATTGCTAGGTGCTAGTCTTGATTCGCTTGACGCTGCTG: 0.12 z-score
GCCTAGCACTTAGGTATCGGGATTCGGTTAGTGCTAGTCTTGATTCGCTTGACGCTGCTG: 2.72 z-score
GCCTAGCACGACGGACTGGGTATCGGGAGGTGCTAGGTCTTGATTCGCTTGACGCTGCTG: 0.144 z-score

Sample 2
Target: Histone acetyltransferase KAT6A, winged helix 1, GST fusion (KAT6A, Homo sapiens, UniProt Q92794, residues 1-85)
Method: protein binding microarray
Form: double-stranded DNA, one strand shown
Matrix: in vitro
Tested at: not given
Notes: 8-mer, flanks averaged, mean of 2 arrays, mostly near background
Reference: not given
Reading: higher = stronger binding
Quantity: E-score
Residues (chain): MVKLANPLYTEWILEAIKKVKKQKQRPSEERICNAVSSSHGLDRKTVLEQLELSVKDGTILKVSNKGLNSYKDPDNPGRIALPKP
CGTACTAG: 0.0535
AGAGACCT: -0.214
ACGCATCG: 0.277
CGTCTTCA: 0.00331

Sample 3
Target: Centromere-binding protein 1, full length, N-terminal tag (CBF1, Saccharomyces cerevisiae, UniProt P17106, residues 1-351)
Chain of UniProt P17106 (whole entry, looked up): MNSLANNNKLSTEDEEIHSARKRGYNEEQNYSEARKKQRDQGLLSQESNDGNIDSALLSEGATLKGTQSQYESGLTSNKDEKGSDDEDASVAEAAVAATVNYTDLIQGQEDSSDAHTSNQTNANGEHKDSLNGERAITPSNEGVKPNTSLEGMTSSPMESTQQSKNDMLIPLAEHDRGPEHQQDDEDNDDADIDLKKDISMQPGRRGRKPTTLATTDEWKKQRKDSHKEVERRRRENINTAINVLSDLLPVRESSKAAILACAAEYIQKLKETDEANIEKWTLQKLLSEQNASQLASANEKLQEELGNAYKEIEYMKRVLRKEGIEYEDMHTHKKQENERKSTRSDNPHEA
Method: protein-binding microarray
Form: double-stranded DNA, one strand shown
Matrix: in vitro
Tested at: 0.8 µM
Notes: whole 60-bp probe, no competitor
Reading: higher = stronger binding
Quantity: fluorescence intensity
GAATGTCTGGTACATAAGGTGAGTCATATTTACTAGGTCTTGATTCGCTTGACGCTGCTG: 552 a.u.
GAACCTCTTACACCGCATGTGATATAATAGTAATAGGTCTTGATTCGCTTGACGCTGCTG: 1580 a.u.
CTAGGGCAATTAAGCATCAGAAGAGGGGAATTTTTCGTCTTGATTCGCTTGACGCTGCTG: 496 a.u.
CTATATCTTACGCGTCACGCGTCGCGTTGCCGTTTCGTCTTGATTCGCTTGACGCTGCTG: 1390 a.u.

Other studies, line by line
PhoQ, residues 284 288 289 292 302 303 GLASVI
fold induction (PhoP, residues 12 14 15 18 19 LHATL (Escherichia coli, UniProt P23836); Sort-seq, measured: YFP reporter; E. coli; PhoQ-PhoP variant library, together with: 10 µM Mg2+; reference: high Mg2+ state, higher = stronger signaling): 3.46
